Measured values pooled from the literature.
Each numbered part is a random draw from the data of one study; scales do not carry over between parts. Changes are numbered by the printed parent chain.

Series 1
Target: RNA binding protein fox-1 homolog 2, RRM domain, GST-SBP tag (RBFOX2, Homo sapiens, UniProt O43251-10, residues 100-194)
Technique: RNA Bind-n-Seq
Form: RNA
Matrix: in vitro
Concentration: 365 nM
Notes: natural RNA segment, single round, ends assumed
Baseline: no-protein control
Reading: higher = stronger binding
Residues (chain): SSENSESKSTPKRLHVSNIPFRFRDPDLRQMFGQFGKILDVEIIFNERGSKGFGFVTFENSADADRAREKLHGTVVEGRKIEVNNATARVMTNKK
`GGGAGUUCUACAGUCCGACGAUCGGAAAAGAACCAACUCGGGCUCUCAACAGCAUUAAACCUGAUGCUUGUGUUUGUAAGUCUGCAUCUGCAUAAGUACUGACUCUGGAUGGAAAAGCUUGGAAGACCUUGGUUGGAAUUCUCGGGUGCCAA` — result for “RBNS enrichment (R)”: 1.06.
Under “RBNS enrichment (R)”, `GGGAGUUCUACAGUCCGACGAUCAGCUUUCACCAAGCUCUGGCCUCCAGGGAGCUGUGUCUUUCUCUGUCCCAUUAAGAUUUGGGCACAGAUAAGACAUCUUCCACUUUCCAUCCUUCCUACAGUUAGAGCCCUGGAAUUCUCGGGUGCCAA` is recorded as 0.338.
For `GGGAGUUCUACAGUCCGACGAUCGGAAUGGAUCACGUAGACAUGUAACCCAGCAGCAGUUUGCUUCUGUUGUCCACUGAUUAAUCAGCCUAUGUGCCUGACACUGGUCUUGCAGUACAACUGGAAGCCAAAACUGGAAUUCUCGGGUGCCAA`, “RBNS enrichment (R)” read 0.212.
For `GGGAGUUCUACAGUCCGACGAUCCCCGUCAUGCUGUCCGUACACUACGUAUGCUGUAGAGCCAUUUUGUAUGUUGUGUAAAACAAAAAGCAUUGAUGAAAAAGCAAAAGGUGAUGUAUGUAUAUGAGAAAAUUUGGAAUUCUCGGGUGCCAA`, “RBNS enrichment (R)” read 1.85.
`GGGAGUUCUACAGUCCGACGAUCUUCCAGAAGAGAGCUAUUUAAACUGGUGGACAUGGGAUUGGAGUCUGGUGUUAGAUUGUUUUGAAUUCUGUUGUCCACAAGAACUCUGUUCUCGUGUUCUUUUGUUUCCGUGGAAUUCUCGGGUGCCAA` — result for “RBNS enrichment (R)”: 0.414.
`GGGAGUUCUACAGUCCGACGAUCAUUGAGAAUCAUGAUGAACUUUGGGUGUGUCUGUCCUGUGAGGAAGCGUGUCUGGAAAGGGGUUCAUGCCUCUAAGGGGCUUACGGAGAUGCUGAGGUACUGCCUCGCCUUGGAAUUCUCGGGUGCCAA` — result for “RBNS enrichment (R)”: 0.983.
Under “RBNS enrichment (R)”, `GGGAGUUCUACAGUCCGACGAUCCGAGUGAACCGUGGAGCAGGCAGGAGCAUCCUUUGUCUCACCAAUUCCAGGAUUUAGGCCUUAUCAUCCCGGCCAGUCUCAGAUGACCUAGCUGGCCCCAGGCUGGGGUCUGGAAUUCUCGGGUGCCAA` is recorded as 0.306.
`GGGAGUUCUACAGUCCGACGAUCGGAAUUUGCUAAGCUUUCUCUUGAAUUUGAGCCAGUGAGAAAAGCAGUCAGAAGAAUGUGAAGGAUGUCUGCGCUGCAGCCUCCAGUGCUGGGUACGCUUCUCUCGUGGGUGGAAUUCUCGGGUGCCAA` — result for “RBNS enrichment (R)”: 2.37.
`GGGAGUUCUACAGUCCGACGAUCCUGAAAAUGUAAAUUUAUACAUCUAUUCAGGAGUUGGAGUGUUGUGGUUACCUACUGAGUAGGCUGCAGUUUUUGUAUGUUAUGAACAUGAAGUUCAUUAUUUUGUGGUUUGGAAUUCUCGGGUGCCAA` — result for “RBNS enrichment (R)”: 2.35.
`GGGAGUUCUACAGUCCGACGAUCGCCCCUGCAGUGUCCUUCGUUCACUAGACAUUGCGCCUGGCUUGCUGUGGGUGGGGAUGAGUUGCUUGACUCAUGUUUAGACGCAUGGUUCUGUCUGGUGAUUGAGGUGCUGGAAUUCUCGGGUGCCAA` — result for “RBNS enrichment (R)”: 4.92.
Under “RBNS enrichment (R)”, `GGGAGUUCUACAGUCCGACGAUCGACAUGCUGCUUCCCAUCAGCCAGAGGGGGUCAGGGCUGCCCUGUUGCCAAACAACUCCCUGAGGCCUCUCCGCACCACCUCAGCGGGCAGGAGGUCCCACCAUGUGGACUGGAAUUCUCGGGUGCCAA` is recorded as 0.389.
`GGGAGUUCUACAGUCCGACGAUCUCAAAAUGGAGAGUUAUUUAAAGUGGAUGUGUAGCCUUCUGGAAUCUGCACGUGACUGGCAUUUUAAAACAACUCAUUAAAUAUUGGAUUCAUUUUAUCGAGAUGCCAAGUGGAAUUCUCGGGUGCCAA`: “RBNS enrichment (R)” 4.22.

Series 2
Target: CCNF, cyclin fold, Cln2 fusion (human)
Technique: yeast growth competition, sequencing
Matrix: yeast
Notes: strong parent motif
Baseline: not given
Reading: higher = stronger binding
Starting sequence: AKAP12 docking peptide (human); GSPLKKLFTSTGL
Under “normalised enrichment score”, `L13A` is recorded as 1.54.
Under “normalised enrichment score”, `S2A` is recorded as 2.17.
`L7A`: “normalised enrichment score” -0.601.
`K5A L7A` — result for “normalised enrichment score”: -0.265.
Under “normalised enrichment score”, `F8A` is recorded as 0.0878.
Under “normalised enrichment score”, `T9A` is recorded as 1.41.
`K5R`: “normalised enrichment score” 0.837.
`P3A` — result for “normalised enrichment score”: 2.49.
For `K6A`, “normalised enrichment score” read 0.28.
`K5R F8L` — result for “normalised enrichment score”: 1.32.

Series 3
Target: RING finger protein unkempt homolog, zinc fingers 1-6, GST-SBP tag (UNK, Homo sapiens, UniProt Q9C0B0, residues 30-357)
Chain of UniProt Q9C0B0 (30-357, looked up): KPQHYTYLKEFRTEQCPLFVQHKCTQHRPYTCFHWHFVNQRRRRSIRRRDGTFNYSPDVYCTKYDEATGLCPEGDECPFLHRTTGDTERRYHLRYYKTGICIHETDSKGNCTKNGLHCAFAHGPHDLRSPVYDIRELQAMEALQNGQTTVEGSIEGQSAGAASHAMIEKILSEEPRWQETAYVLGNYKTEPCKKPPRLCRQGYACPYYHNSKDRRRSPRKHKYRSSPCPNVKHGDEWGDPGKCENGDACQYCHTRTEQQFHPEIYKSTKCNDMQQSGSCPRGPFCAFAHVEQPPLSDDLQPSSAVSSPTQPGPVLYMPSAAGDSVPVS
Technique: RNA Bind-n-Seq
Form: RNA
Matrix: in vitro
Concentration: not given
Notes: RNA with constant flanks, ends assumed
Baseline: input RNA pool
Reading: higher = stronger binding
`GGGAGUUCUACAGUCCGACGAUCAGUAAGCGGGACUUUAUGCUGAUCACAAACAGAUCCCUGAAAGAGGAAGAUGGAGAAGAAACCGUUACCUAUGACCAUCUGUGUAAGAACUGUCAUCAUGUAGUAGCCAGACACGAGUAUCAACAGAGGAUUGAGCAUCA` has a bound/input enrichment of 0.817 ratio.
With `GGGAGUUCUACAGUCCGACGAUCCUUGUUUAUCACAUUGGCCUUACUCCAGCGAAACUUCCAGAUCUAGUGGAGAACAACCCUUCCGUCGCUAUAGAAAUGCUGCUGAAACUGAUGCAGUCAAGCCAGAUCACGGAGUAUUUCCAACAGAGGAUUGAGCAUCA` the bound/input enrichment was 0.518 ratio.
`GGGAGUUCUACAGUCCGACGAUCGGUGAUGAGGCAAGUGAAUUACGAUCAAUGUUAGAAGUUAACUACCCUAUGGAAAAUGGCACCGUACGAAAUUGGGAUGACAUGAAACACCUGUGGGACUACACAUUUGGACCAGAGAAACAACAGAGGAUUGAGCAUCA` has a bound/input enrichment of 0.384 ratio.
For `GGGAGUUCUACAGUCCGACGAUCCUCACGGCCCAGCAUGAAAACUUCAGGAAAAAGCAAAUUGAGGAACUGAAGGGACAGGAAGUCCGCCCUAAAGUUUACUUCAUGAAGCAGACCAUCGGAAACUCCUGUGGUACCAUCGGGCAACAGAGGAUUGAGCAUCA`, the bound/input enrichment was 0.143 ratio.
With `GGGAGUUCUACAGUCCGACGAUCCUAUGUAAAACGACAGCCUUACAUAGUUUCCUGUCAACACAAAUUUAGGAUAUAAUACAUUUCCGAAAUUUAUUAUUUUUCAAUUAUUUUUGGUUUUUUUACUACUUACCUUGUAAAAAUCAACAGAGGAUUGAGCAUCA` the bound/input enrichment was 3.97 ratio.
With `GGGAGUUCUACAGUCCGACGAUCCCAUUUAAAGACAGAAUCAGCUGGGCUGGAGACCUUGACAAGAAAGAUGCAUCAAUCAACACCGAAAAUAUGCAGUUUAUACACAAUGGCACCUAUAUCUGUGAUGUCAAAAACCCUCCUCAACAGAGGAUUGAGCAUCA` the bound/input enrichment was 0.145 ratio.
`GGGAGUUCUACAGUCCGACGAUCACACAACACAAACAUAAGGAGAGACUUAGUGCUUCACCUCAGGAGGUAGGAAAGCCAUAUUCCGAGUCUUUUCAGCCCAAUUUACAUAUUACAAAAGAUGCUGCAUCUAAUGAAAUUCCACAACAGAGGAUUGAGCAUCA` has a bound/input enrichment of 0.717 ratio.
`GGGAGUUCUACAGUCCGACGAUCCCUUUUUGUUACUUGACACUUCCAUUGCCCAUGAAAAAAGAACGCACCUUGGAAGUUUACUCCGUCCGAAUGGAUCCACUUACCAAACCUAUGCAGUACAAAGUGGUUGUCCCCAAAAUUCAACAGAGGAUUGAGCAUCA` gave a bound/input enrichment of 0.154 ratio.
`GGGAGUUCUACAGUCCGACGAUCCUGGUAGACGACAAGCCUGGCCCUAGUCCGUUUUCUGAUCAGUCAGAACCCACAAUAACUACCCGCCGUCCUGUGGCUUUCAACCCAUUUCUCAUCCCAGGAGUGUCUCCUGGACUCAUCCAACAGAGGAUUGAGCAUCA` gave a bound/input enrichment of 0.194 ratio.
`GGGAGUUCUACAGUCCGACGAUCCCAGGAAGAAAGUGAAUCCUGAGACCAGACAGAAAGGCCAGGUUCUGGGAGAAGUAGACCCCGUUGGCAUAGUGAGGCUCACAGAAAACAGGAAGCCCUUUGUUCCGGAGAACAGCCCAGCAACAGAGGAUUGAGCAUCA` has a bound/input enrichment of 0.225 ratio.
`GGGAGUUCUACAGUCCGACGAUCCGGAAGAAAGAUACAAAUAAAAGCAUCAAGCAUUGCACAGUUCUCUCCAAUAAUGCCGAUCAUCUUUUACUGAACUUAACACUGUCUGAUAUCAUGGUCUCGCUGGCAAAUGCUUCAACCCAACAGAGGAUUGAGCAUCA` has a bound/input enrichment of 0.247 ratio.

Series 4
Target: ABI1, truncated, D143A, DHFR fusion (Arabidopsis thaliana)
Technique: DHFR PCA, deep sequencing
Matrix: yeast
Notes: methotrexate growth selection, single substitutions
Added: (+)-ABA 0.39 µM
Baseline: wild-type fitted maximum
Reading: higher = stronger binding
Starting sequence: PYL1, truncated, DHFR fusion (Arabidopsis thaliana); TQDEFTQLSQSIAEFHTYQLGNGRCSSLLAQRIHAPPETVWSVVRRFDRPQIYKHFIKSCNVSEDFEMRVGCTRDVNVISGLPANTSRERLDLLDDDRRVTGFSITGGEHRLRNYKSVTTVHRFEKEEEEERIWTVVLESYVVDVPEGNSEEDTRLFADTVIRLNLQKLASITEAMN; partner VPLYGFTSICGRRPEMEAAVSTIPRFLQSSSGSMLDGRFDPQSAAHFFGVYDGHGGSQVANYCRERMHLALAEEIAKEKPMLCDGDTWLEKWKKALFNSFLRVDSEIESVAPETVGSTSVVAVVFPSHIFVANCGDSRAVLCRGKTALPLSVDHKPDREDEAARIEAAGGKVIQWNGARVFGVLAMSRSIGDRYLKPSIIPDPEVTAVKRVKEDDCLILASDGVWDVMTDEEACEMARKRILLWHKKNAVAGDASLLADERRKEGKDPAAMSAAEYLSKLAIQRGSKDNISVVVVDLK
Under “relative binding score”, `E131W` is recorded as 21.9%.
Under “relative binding score”, `K54Q` is recorded as 8.75%.
`H110F` — result for “relative binding score”: 21.4%.
Under “relative binding score”, `I172H` is recorded as -0.204%.
`R45W`: “relative binding score” 1.13%.
`F66Y`: “relative binding score” 18.2%.
`H55C` — result for “relative binding score”: 70%.
`K168D`: “relative binding score” -6%.
For `R49K`, “relative binding score” read 58.9%.
For `D96S`, “relative binding score” read -11.6%.
For `H55P`, “relative binding score” read 104%.
For `I57M`, “relative binding score” read -3.45%.
For `Q2R`, “relative binding score” read 38.6%.
Under “relative binding score”, `S171I` is recorded as 11.5%.
`Q19P` — result for “relative binding score”: 57.6%.
For `T73Y`, “relative binding score” read 63.9%.
Under “relative binding score”, `H34K` is recorded as 51.1%.

Series 5
Target: CREBRF, bZIP domain (human)
Technique: DHFR protein complementation
Matrix: yeast
Notes: single substitutions, most at no-binding floor
Baseline: wild-type JUN-FOS pair
Reading: higher = stronger binding
Starting sequence: JUN, bZIP domain (human); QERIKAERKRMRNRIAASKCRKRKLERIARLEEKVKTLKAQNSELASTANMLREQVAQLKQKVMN; partner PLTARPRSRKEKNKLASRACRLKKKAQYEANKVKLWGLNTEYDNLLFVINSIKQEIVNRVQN
The binding fitness of `Q55I` is reported as -1.56 natural log.
`L45A` gave a binding fitness of -1.5 natural log.
The binding fitness of `Q41G` is reported as -1.47 natural log.
`I28A` has a binding fitness of -1.49 natural log.
For `R53W`, the binding fitness was -1.52 natural log.
`L45D` gave a binding fitness of -1.28 natural log.
`E54I` gave a binding fitness of -1.43 natural log.
`R30F` gave a binding fitness of -1.44 natural log.
`A46T` has a binding fitness of -1.46 natural log.
`Q55D` has a binding fitness of -1.35 natural log.
`S47F` has a binding fitness of -1.32 natural log.
`L52S` has a binding fitness of -1.6 natural log.
`L52W` has a binding fitness of -1.53 natural log.
`V35M` gave a binding fitness of -1.53 natural log.
The binding fitness of `S43G` is reported as -1.44 natural log.
`V35W` has a binding fitness of -1.41 natural log.
For `R30W`, the binding fitness was -1.53 natural log.
With `S43V` the binding fitness was -1.42 natural log.
`R30T` gave a binding fitness of -1.37 natural log.

For quick reference, copied from above (series 4):
`F66Y`: “relative binding score” 18.2%.
`H55C` — result for “relative binding score”: 70%.
`K168D`: “relative binding score” -6%.
For `R49K`, “relative binding score” read 58.9%.
For `D96S`, “relative binding score” read -11.6%.
For `H55P`, “relative binding score” read 104%.
For `I57M`, “relative binding score” read -3.45%.
For `Q2R`, “relative binding score” read 38.6%.
Under “relative binding score”, `S171I` is recorded as 11.5%.
`Q19P` — result for “relative binding score”: 57.6%.
